Experimental data gathered from unrelated publications.
Each numbered part is a random draw from the data of one study; scales do not carry over between parts.

Series 1
Target: Centromere-binding protein 1, full length, N-terminal tag (CBF1, Saccharomyces cerevisiae, UniProt P17106, residues 1-351)
UniProt P17106, sequence (whole entry, looked up): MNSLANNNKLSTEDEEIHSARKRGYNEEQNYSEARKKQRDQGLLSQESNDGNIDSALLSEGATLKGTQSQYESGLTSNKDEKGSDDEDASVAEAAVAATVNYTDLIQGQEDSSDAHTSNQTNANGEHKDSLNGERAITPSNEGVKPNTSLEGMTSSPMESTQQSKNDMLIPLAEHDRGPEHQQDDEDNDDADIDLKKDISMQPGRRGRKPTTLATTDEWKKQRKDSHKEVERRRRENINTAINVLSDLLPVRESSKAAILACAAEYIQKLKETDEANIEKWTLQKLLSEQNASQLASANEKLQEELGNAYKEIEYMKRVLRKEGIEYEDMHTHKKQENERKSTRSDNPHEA
Method: protein-binding microarray
Molecule type: double-stranded DNA, one strand shown
Matrix: in vitro
Tested at: 0.8 µM
Setting: whole 60-bp probe, no competitor
Direction: higher = stronger binding
| Strand | fluorescence intensity [a.u.] |
| --- | --- |
| GAAGGGTGTGGGTGTGGTGTGGGTGTGTGGGTGTAGGTCTTGATTCGCTTGACGCTGCTG | 526 |
| CTATTGAAAATATACAACGTGGTTACATAAAGATTCGTCTTGATTCGCTTGACGCTGCTG | 740 |
| GAAGTAGTGCAGCAATGCGTGCGTGTGCAAGCTTAGGTCTTGATTCGCTTGACGCTGCTG | 507 |
| CTACACATTGGTATCTTGGTGATGAAAAATGACTTCGTCTTGATTCGCTTGACGCTGCTG | 537 |

Series 2
Target: Prothrombin, mature alpha-thrombin (F2, Homo sapiens, UniProt P00734)
Method: aptamer microarray, sandwich
Molecule type: DNA with 2'F-ANA
Matrix: in vitro
Tested at: 200 nM
Setting: whole 15-mer aptamer, many near background
Added: Cy3 exosite-II aptamer, 400 nM
Direction: higher = stronger binding
| Strand | mean fluorescence intensity [a.u.] |
| --- | --- |
| GGTTGGTGTGGTTGG (2'F-ANA at 1 4 5 7 8 9 10 11 12 15) | 168 |
| GGTTGGTGTGGTTGG (2'F-ANA at 1 2 4 5 8 10 11 12 13 14) | 45.6 |
| GGTTGGTGTGGTTGG (2'F-ANA at 4 7 14 15) | 116 |
| GGTTGGTGTGGTTGG (2'F-ANA at 2 4 6 7 9 11 12 13 15) | 223 |

Series 3
Target: Histone acetyltransferase KAT6A, winged helix 2, GST fusion (KAT6A, Homo sapiens, UniProt Q92794, residues 85-181)
Method: protein binding microarray
Molecule type: double-stranded DNA, one strand shown
Matrix: in vitro
Tested at: not given
Setting: 8-mer, flanks averaged, mean of 2 arrays, mostly near background
Relative to: not given
Direction: higher = stronger binding
Residues (chain): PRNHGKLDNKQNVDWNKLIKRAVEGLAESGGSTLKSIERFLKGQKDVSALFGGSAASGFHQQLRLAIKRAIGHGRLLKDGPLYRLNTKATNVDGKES
| Strand | E-score |
| --- | --- |
| CGTATTCC | 0.00517 |
| CGGTAGGA | 0.0672 |
| CGGCCCCC | -0.00095 |
| ATTGGATC | 0.0833 |
| GGGGACAA | 0.0526 |

Mixed results
| Substance | target | test | test system | conditions | scale | quantity | result |
| --- | --- | --- | --- | --- | --- | --- | --- |
| PhoQ, residues 284 288 289 292 302 303 AQGLTV | PhoP, residues 12 14 15 18 19 LWHVM (Escherichia coli, UniProt P23836) | Sort-seq, measured: YFP reporter | E. coli | PhoQ-PhoP variant library, added: 10 µM Mg2+ | relative to: high Mg2+ state, higher = stronger signaling | fold induction | 18.1 |

A few entries again (series 1):
| Strand | fluorescence intensity [a.u.] |
| --- | --- |
| GAAGTAGTGCAGCAATGCGTGCGTGTGCAAGCTTAGGTCTTGATTCGCTTGACGCTGCTG | 507 |
| GAAGGGTGTGGGTGTGGTGTGGGTGTGTGGGTGTAGGTCTTGATTCGCTTGACGCTGCTG | 526 |
